Measured values pooled from the literature.
Several values in a cell are separate wells, animals, samples, runs or records.
Cell line: THP-1

C=CC(=O)N1CC/C(=C\c2ccc(F)c([N+](=O)[O-])c2)C(=O)/C(=C/c2ccc(F)c([N+](=O)[O-])c2)C1
IC50 (pyroptotic cell death, inhibitor, CellTiter-Glo; added: LPS priming and nigericin): 72 nM

Nc1ncc(-c2cnn(C3CCNCC3)c2)cc1-c1nnc(CC2CC2)o1
IC50 (cell viability; 72 h): 164 nM

C/C(=N\NC(=O)c1cccc(S(=O)(=O)N2CCN(C)CC2)c1)c1cc(Cl)ccc1O
EC50 (differentiation, flow cytometry, measured: CD11b; 96 h): > 2000 nM

Cc1occc(=O)c1O
inhibition (pyroptotic LDH release; 2 µM, 40 min, added: LPS then nigericin): -6.26%

CN1CC(Oc2cnc(C#N)cc2-c2ccn3nc(NC(=O)C4CC4)cc3c2)C1
EC50 (nuclear translocation, measured: CRTC3; median of experiments): 2910 nM

CCn1cc(-c2cc(Cn3ccnc3)cc3c2CCN([C@H](c2cc(OC)ccn2)C2CC2)C3=O)c(C(F)(F)F)n1
EC50 (cell growth, inhibitor; 120 h): > 30000 nM

CC1(C)CC[C@]2(NC(=O)C(C)(F)F)CC[C@]3(C)[C@H](C(=O)C=C4[C@@]5(C)C=C(C#N)C(=O)C(C)(C)[C@@H]5CC[C@]43C)[C@@H]2C1
maximum protection (pyroptotic cell death, CellTiter-Glo; added: LPS priming and nigericin): 50.9%

C[C@@H](O)[C@H](NC(=O)[C@H](CCCNC(=N)N)NC(=O)[C@H](CC(N)=O)NC(=O)[C@H](CC(N)=O)NC(=O)[C@@H](N)CCCNC(=N)N)C(=O)N[C@@H](CO)C(=O)NCC(=O)N[C@@H](Cc1ccccc1)C(=O)N[C@@H](CCCCN)C(=O)N[C@@H](Cc1c[nH]c2ccccc12)C(=O)O
active β-catenin level (Western blot; 1.0 µM, 3 days, unit not given, added: WNT3A; relative to: WNT3A alone): 1.4

O=C1c2ccccc2-c2ccccc21
inhibition (pyroptotic LDH release; 2 µM, 40 min, added: LPS then nigericin): 2.6%

COC(=O)/C=C/C(=O)OCCN1C(=O)CCC1=O
IC50 (pyroptotic cell death, inhibitor, CellTiter-Glo; added: LPS priming and nigericin): 1940 nM

CCn1cc(-c2cc(Cn3ccoc3=N)cc3c2CCN([C@@H](C)c2cc(OC)ccn2)C3=O)c(C(F)(F)F)n1
EC50 (cell growth, inhibitor; 120 h): 257 nM

N#Cc1ccc2c(CN3CCOCC3)cc(-c3ccc([C@H]4CCC(=O)N4)cc3)nc2c1
mRNA level (decreased, measured: CCL2; 10 µM, added: CML-HSA; relative to: vehicle): decreased

CC(C)c1cc(C(C)C)c(CC(=O)NS(=O)(=O)Oc2c(C(C)C)cccc2C(C)C)c(C(C)C)c1
inhibition (pyroptotic LDH release; 2 µM, 40 min, added: LPS then nigericin): 22.2%

CC1=C(CO)C(=O)O[C@@H]([C@@H](C)[C@H]2CC[C@H]3[C@@H]4C[C@H]5O[C@]56[C@@H](O)C=CC(=O)[C@]6(C)[C@H]4CC[C@]23C)C1
maximum protection (pyroptotic cell death, CellTiter-Glo; added: LPS priming and nigericin): 63.4%

COc1ccc(CC(=O)O)cc1OC
inhibition (pyroptotic LDH release; 2 µM, 40 min, added: LPS then nigericin): 12.1%

O=C1/C(=C/c2ccccc2)C(NC2CCCCC2)c2ccccc21 (stereo not shown)
IC50 (pyroptotic cell death, inhibitor, CellTiter-Glo; added: LPS priming and nigericin): 232 nM

Clc1ccc(CCC(Cn2ccnc2)Sc2c(Cl)cccc2Cl)cc1 (stereo not shown)
inhibition (pyroptotic LDH release; 2 µM, 40 min, added: LPS then nigericin): 36%

C#CCN(C)Cc1ccccc1
EC50 (differentiation, flow cytometry, measured: CD11b; 96 h): > 2000 nM

CC(=O)N[C@@H](CCC(=O)O)C(=O)O
inhibition (pyroptotic LDH release; 2 µM, 40 min, added: LPS then nigericin): -5.86%

C[C@H](NC(=O)C(=O)Nc1ccccc1C(C)(C)C)C(=O)N[C@@H](CC(=O)O)C(=O)COc1c(F)c(F)cc(F)c1F
viability (inhibitor, CellTiter-Glo; 10 µM, added: staurosporine 1 µM): 41.3% and 32.6%

CC(C)(N)C(=O)O
inhibition (pyroptotic LDH release; 2 µM, 40 min, added: LPS then nigericin): 1.1%

COc1ccc(-c2c(-c3ccc(C#N)c(F)c3)nc(N3CCC(N)CC3)n(C)c2=O)cc1F
EC50 (differentiation, flow cytometry, measured: CD11b; 96 h): 2.34 nM

A few entries again:
O=C1/C(=C/c2ccccc2)C(NC2CCCCC2)c2ccccc21 (stereo not shown)
IC50 (pyroptotic cell death, inhibitor, CellTiter-Glo; added: LPS priming and nigericin): 232 nM

Cc1occc(=O)c1O
inhibition (pyroptotic LDH release; 2 µM, 40 min, added: LPS then nigericin): -6.26%

Nc1ncc(-c2cnn(C3CCNCC3)c2)cc1-c1nnc(CC2CC2)o1
IC50 (cell viability; 72 h): 164 nM

COC(=O)/C=C/C(=O)OCCN1C(=O)CCC1=O
IC50 (pyroptotic cell death, inhibitor, CellTiter-Glo; added: LPS priming and nigericin): 1940 nM
